{"data": "Published values gathered from unrelated publications", "note": "A part holds a random share of what one study measured.", "sequence of UniProt O14920 (whole entry, looked up)": "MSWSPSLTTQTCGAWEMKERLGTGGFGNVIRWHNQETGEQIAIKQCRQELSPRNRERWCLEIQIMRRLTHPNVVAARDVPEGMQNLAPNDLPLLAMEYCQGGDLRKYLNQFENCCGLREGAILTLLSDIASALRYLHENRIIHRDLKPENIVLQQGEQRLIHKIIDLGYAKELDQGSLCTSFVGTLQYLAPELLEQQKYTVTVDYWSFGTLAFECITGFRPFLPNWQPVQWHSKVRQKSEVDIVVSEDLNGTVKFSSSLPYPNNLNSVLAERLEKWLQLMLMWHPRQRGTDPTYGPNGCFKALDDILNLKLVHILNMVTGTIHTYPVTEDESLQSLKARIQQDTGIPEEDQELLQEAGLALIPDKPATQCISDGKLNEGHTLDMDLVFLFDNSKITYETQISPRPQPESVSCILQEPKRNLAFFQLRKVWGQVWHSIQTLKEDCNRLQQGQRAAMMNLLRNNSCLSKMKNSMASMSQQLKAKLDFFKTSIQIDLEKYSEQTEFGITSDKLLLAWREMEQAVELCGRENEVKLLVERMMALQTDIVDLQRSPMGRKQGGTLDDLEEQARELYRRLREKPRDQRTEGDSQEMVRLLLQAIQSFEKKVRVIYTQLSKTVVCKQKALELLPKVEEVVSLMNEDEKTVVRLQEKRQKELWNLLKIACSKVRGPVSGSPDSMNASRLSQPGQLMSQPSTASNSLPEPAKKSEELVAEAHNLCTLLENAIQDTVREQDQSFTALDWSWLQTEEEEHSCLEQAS", "sequence of UniProt Q9UIK4 (whole entry, looked up)": "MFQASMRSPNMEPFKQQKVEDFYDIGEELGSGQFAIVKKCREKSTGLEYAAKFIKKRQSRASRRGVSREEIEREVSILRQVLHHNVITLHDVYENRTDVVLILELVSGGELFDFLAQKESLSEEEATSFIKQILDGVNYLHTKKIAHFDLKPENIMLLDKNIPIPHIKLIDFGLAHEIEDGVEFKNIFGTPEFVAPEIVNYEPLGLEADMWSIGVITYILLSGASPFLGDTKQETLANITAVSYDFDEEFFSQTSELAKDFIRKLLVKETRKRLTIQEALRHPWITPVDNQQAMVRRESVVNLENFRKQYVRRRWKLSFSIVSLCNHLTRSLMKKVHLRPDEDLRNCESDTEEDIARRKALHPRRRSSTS", "sequence of UniProt Q14164 (whole entry, looked up)": "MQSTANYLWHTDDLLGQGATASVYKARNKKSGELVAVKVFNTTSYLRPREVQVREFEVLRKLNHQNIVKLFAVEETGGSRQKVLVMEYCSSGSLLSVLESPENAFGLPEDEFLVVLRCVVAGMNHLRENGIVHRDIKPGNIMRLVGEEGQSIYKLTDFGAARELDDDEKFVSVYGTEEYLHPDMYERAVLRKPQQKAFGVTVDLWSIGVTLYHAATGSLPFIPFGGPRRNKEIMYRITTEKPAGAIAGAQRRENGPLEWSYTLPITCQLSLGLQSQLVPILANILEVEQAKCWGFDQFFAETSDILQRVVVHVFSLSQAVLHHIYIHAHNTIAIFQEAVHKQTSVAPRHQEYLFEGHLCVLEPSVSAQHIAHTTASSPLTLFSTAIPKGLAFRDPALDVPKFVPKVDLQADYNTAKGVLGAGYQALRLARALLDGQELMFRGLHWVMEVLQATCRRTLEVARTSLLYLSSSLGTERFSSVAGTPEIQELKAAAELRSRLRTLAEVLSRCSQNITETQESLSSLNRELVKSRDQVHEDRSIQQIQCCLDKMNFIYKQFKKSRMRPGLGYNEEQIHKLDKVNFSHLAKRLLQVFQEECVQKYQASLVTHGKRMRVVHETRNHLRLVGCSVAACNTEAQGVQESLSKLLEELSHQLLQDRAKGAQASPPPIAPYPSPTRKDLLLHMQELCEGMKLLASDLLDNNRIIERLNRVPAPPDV", "sequence of UniProt O94804 (whole entry, looked up)": "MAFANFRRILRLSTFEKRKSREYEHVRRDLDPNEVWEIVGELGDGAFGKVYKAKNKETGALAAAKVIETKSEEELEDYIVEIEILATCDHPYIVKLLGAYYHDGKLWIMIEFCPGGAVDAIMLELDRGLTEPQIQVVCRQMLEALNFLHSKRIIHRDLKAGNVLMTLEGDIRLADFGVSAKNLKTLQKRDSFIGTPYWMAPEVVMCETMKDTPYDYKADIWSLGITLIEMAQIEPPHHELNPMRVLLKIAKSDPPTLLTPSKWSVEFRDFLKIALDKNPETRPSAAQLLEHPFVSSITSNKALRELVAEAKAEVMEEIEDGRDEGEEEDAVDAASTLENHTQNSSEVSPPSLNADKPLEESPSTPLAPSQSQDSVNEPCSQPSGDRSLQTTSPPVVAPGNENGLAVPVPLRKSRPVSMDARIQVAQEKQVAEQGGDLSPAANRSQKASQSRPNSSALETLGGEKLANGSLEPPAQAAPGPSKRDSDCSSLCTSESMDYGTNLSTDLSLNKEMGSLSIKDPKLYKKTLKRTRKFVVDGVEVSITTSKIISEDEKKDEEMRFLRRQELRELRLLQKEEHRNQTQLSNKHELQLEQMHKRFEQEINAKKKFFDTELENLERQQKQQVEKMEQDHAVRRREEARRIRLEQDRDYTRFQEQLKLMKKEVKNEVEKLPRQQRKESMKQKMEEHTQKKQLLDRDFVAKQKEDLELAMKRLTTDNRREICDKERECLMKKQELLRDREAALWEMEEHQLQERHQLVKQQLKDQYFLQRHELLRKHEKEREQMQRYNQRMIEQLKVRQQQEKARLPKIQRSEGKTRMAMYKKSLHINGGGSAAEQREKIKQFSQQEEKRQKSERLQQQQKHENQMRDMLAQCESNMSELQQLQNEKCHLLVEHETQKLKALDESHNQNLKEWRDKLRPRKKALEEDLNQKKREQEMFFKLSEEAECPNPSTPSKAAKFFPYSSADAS", "sequence of UniProt Q00535 (whole entry, looked up)": "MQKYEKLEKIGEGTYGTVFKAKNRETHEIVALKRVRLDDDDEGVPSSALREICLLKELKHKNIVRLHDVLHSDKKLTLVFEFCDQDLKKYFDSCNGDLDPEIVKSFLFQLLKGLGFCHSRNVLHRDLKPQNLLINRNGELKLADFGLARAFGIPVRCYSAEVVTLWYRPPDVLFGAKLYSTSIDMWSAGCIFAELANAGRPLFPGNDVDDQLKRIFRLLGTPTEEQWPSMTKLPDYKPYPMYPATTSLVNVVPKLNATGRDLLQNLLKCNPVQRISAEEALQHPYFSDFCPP", "sequence of UniProt P11802 (whole entry, looked up)": "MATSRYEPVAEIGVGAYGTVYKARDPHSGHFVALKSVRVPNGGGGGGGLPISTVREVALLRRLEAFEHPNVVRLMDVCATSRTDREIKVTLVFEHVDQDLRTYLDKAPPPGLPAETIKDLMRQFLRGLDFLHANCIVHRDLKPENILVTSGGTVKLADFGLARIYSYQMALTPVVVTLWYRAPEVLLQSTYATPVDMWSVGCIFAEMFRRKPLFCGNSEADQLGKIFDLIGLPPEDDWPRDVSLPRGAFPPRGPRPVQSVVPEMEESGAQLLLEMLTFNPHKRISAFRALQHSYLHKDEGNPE", "sequence of UniProt P50406 (whole entry, looked up)": "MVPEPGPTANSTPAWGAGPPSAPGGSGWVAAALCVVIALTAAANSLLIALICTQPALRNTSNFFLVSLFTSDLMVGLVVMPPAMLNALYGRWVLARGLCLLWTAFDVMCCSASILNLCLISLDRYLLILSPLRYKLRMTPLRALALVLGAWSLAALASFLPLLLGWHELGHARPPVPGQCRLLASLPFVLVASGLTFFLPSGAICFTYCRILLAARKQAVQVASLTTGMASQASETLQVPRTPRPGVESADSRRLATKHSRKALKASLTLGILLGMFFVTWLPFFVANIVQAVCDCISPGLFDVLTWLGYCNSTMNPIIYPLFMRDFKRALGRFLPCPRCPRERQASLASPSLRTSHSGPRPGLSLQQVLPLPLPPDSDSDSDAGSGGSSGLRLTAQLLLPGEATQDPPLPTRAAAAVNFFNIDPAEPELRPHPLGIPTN", "sequence of UniProt P21917 (whole entry, looked up)": "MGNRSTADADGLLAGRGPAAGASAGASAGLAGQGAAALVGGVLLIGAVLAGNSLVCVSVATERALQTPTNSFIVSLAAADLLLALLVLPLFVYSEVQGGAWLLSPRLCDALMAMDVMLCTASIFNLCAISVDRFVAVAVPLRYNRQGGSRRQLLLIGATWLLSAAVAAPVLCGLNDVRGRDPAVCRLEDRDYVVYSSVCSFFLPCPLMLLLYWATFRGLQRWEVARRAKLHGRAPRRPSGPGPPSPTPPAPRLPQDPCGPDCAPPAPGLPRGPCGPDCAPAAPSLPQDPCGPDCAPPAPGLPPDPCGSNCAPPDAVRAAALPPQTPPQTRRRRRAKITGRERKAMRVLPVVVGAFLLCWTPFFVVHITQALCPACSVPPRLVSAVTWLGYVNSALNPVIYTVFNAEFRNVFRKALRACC"}
{"data": "Block 1", "SMILES": "CNCc1ccccc1-c1csc([C@H](C)Nc2nc(C)nc3cc(OC)c(OC)cc23)c1", "read-out": "binding", "technique": "radioligand binding", "tested at": "10 µM"}
{"target": "D(4) dopamine receptor (DRD4, Homo sapiens, UniProt P21917)", "inhibition [%]": 31}
{"target": "Sigma intracellular receptor 2 (TMEM97, Homo sapiens, UniProt Q5BJF2)", "inhibition [%]": 83.2}
{"target": "Alpha-2A adrenergic receptor (ADRA2A, Homo sapiens, UniProt P08913)", "inhibition [%]": 93.5}
{"target": "D(3) dopamine receptor (DRD3, Homo sapiens, UniProt P35462)", "inhibition [%]": 64.8}
{"target": "Histamine H3 receptor (HRH3, Homo sapiens, UniProt Q9Y5N1)", "inhibition [%]": 24.6}
{"target": "D(2) dopamine receptor (DRD2, Homo sapiens, UniProt P14416)", "inhibition [%]": 50.6}
{"target": "5-hydroxytryptamine receptor 6 (HTR6, Homo sapiens, UniProt P50406)", "inhibition [%]": 20.2}
{"target": "Beta-2 adrenergic receptor (ADRB2, Homo sapiens, UniProt P07550)", "inhibition [%]": 18.2}
{"target": "5-hydroxytryptamine receptor 2B (HTR2B, Homo sapiens, UniProt P41595)", "inhibition [%]": 97.3}
{"target": "Sigma non-opioid intracellular receptor 1 (SIGMAR1, Homo sapiens, UniProt Q99720)", "inhibition [%]": 49}
{"target": "Alpha-1A adrenergic receptor (ADRA1A, Homo sapiens, UniProt P35348)", "inhibition [%]": 83.4}
{"target": "Muscarinic acetylcholine receptor M5 (CHRM5, Homo sapiens, UniProt P08912)", "inhibition [%]": 54.1}
{"data": "Block 2", "Structure (SMILES)": "NC(=O)c1cccc(-c2cc(Nc3ccc(OC(F)(F)F)cc3)ncn2)c1", "read-out": "enzyme activity", "mode": "inhibitor", "tested at": "0.5 µM", "baseline": "control"}
{"target": "Serine/threonine-protein kinase Chk2 (CHEK2, Homo sapiens, UniProt O96017)", "remaining activity [%]": 101}
{"target": "Calcium/calmodulin-dependent protein kinase kinase 2 (CAMKK2, Homo sapiens, UniProt Q96RR4)", "remaining activity [%]": 99.1}
{"target": "Death-associated protein kinase 2 (DAPK2, Homo sapiens, UniProt Q9UIK4)", "remaining activity [%]": 99.1}
{"target": "Calcium/calmodulin-dependent protein kinase type II subunit delta (CAMK2D, Homo sapiens, UniProt Q13557)", "remaining activity [%]": 90.8}
{"target": "cAMP-dependent protein kinase catalytic subunit alpha (PRKACA, Homo sapiens, UniProt P17612)", "remaining activity [%]": 94.2}
{"target": "Serine/threonine-protein kinase 10 (STK10, Homo sapiens, UniProt O94804)", "remaining activity [%]": 101}
{"target": "Protein kinase C beta type, isoform beta-I (PRKCB, Homo sapiens, UniProt P05771)", "remaining activity [%]": 97.4}
{"target": "Mitogen-activated protein kinase kinase kinase 3 (MAP3K3, Homo sapiens, UniProt Q99759)", "remaining activity [%]": 104}
{"target": "Death-associated protein kinase 1 (DAPK1, Homo sapiens, UniProt P53355)", "remaining activity [%]": 81.1}
{"target": "TGF-beta receptor type-2 (TGFBR2, Homo sapiens, UniProt P37173)", "remaining activity [%]": 94.9}
{"target": "cGMP-dependent protein kinase 1, isoform beta (PRKG1, Homo sapiens, UniProt Q13976)", "remaining activity [%]": 92.9}
{"target": "Cyclin-dependent kinase 4, with cyclin D1 (CDK4, Homo sapiens, UniProt P11802)", "remaining activity [%]": 99.8}
{"target": "G protein-coupled receptor kinase 3 (GRK3, Homo sapiens, UniProt P35626)", "remaining activity [%]": 80.5}
{"target": "Serine/threonine-protein kinase OSR1 (OXSR1, Homo sapiens, UniProt O95747)", "remaining activity [%]": 97.9}
{"target": "Serine/threonine-protein kinase STK11 (STK11, Homo sapiens, UniProt Q15831)", "remaining activity [%]": 97.2}
{"target": "Inhibitor of nuclear factor kappa-B kinase subunit epsilon (IKBKE, Homo sapiens, UniProt Q14164)", "remaining activity [%]": 107}
{"target": "Protein kinase C alpha type (PRKCA, Homo sapiens, UniProt P17252)", "remaining activity [%]": 77.4}
{"target": "Tyrosine-protein kinase Lyn, isoform B (LYN, Homo sapiens, UniProt P07948)", "remaining activity [%]": 101}
{"target": "STE20/SPS1-related proline-alanine-rich protein kinase (STK39, Homo sapiens, UniProt Q9UEW8)", "remaining activity [%]": 85.5}
{"target": "Cyclin-dependent kinase 5, with p25 (CDK5, Homo sapiens, UniProt Q00535)", "remaining activity [%]": 80.1}
{"target": "Serine/threonine-protein kinase Nek2 (NEK2, Homo sapiens, UniProt P51955)", "remaining activity [%]": 95.6}
{"target": "Inhibitor of nuclear factor kappa-B kinase subunit beta (IKBKB, Homo sapiens, UniProt O14920)", "remaining activity [%]": 98.6}
{"data": "Block 3", "organism": "Sarcocystis neurona", "read-out": "parasite growth", "tested at": "10 µM", "time": "96 h", "notes": "secondary screen"}
{"Structure (SMILES)": "CC(C)(C)NC(=O)[C@@H]1CN(Cc2cccnc2)CCN1C[C@@H](O)C[C@@H](Cc1ccccc1)C(=O)N[C@H]1c2ccccc2C[C@H]1O", "inhibition [%]": -10.3}
{"Structure (SMILES)": "Oc1ncnc2[nH]ncc12", "inhibition [%]": -25}
{"Structure (SMILES)": "Cc1cc2c(s1)Nc1ccccc1N=C2N1CCN(C)CC1", "inhibition [%]": -22.9}
{"Structure (SMILES)": "CC(=O)OCC(=O)[C@@]12OC3(CCCC3)O[C@@H]1C[C@H]1[C@@H]3CCC4=CC(=O)C=C[C@]4(C)[C@@]3(F)[C@@H](O)C[C@@]12C", "inhibition [%]": -15.1}
{"Structure (SMILES)": "CC/C(=C(\\c1ccccc1)c1ccc(OCCN(C)C)cc1)c1ccccc1", "inhibition [%]": -28}
{"Structure (SMILES)": "CCN1CCCC1CNC(=O)c1cc(S(=O)(=O)CC)c(N)cc1OC (stereo not drawn)", "inhibition [%]": -11.1}
{"Structure (SMILES)": "Nc1ncnc2c1ncn2[C@@H]1O[C@H](CO)[C@@H](O)[C@@H]1O", "inhibition [%]": -20.2}
{"Structure (SMILES)": "CCOc1ccc2ccccc2c1C(=O)N[C@@H]1C(=O)N2[C@@H]1SC(C)(C)[C@@H]2C(=O)O", "inhibition [%]": -22.6}
{"data": "Block 4", "host": "human", "sample": "microsomes or S9", "tested at": "2 µM", "time": "0.5 h"}
{"SMILES": "CCc1nnc(NCCc2cncn2C)c(C#N)c1CC", "remaining compound [%]": 99.9}
{"SMILES": "COc1ccc(N(C)C(=O)c2cc(S(=O)(=O)N3CCc4ccccc43)cn2C)c(OC)c1", "remaining compound [%]": "< 1"}
{"SMILES": "CCc1nc(C)c2c(n1)N(CCc1c(C)noc1C)C(=O)CC2", "remaining compound [%]": 0.888}
{"SMILES": "CC(C)n1ncc2c1NC(=O)CC21C(=O)N(C)c2cc(Cl)cc(Cl)c21 (stereo not drawn)", "remaining compound [%]": "> 99.9"}
{"SMILES": "CCc1nn2c(c1-c1ccc(C)c(S(=O)(=O)N(C)c3ccc(C)c(C)c3)c1)NC(=O)CCC2=O", "remaining compound [%]": 49.3}
{"SMILES": "O=C(Cn1cnc(C2CC2)cc1=O)N1CCC(N2CC(=O)N(c3ccccc3)C2=O)CC1", "remaining compound [%]": 91.2}
{"SMILES": "CCN(C(=O)c1cc(C)c(C)[nH]c1=O)[C@H]1COC[C@@H]1O", "remaining compound [%]": 100}
{"SMILES": "CCOC(=O)N1CCN(C2CCCc3sccc32)CC1 (stereo not drawn)", "remaining compound [%]": 2.83}
{"SMILES": "Nc1cc(C(=O)OCCC2CCOC2=O)cnc1Cl (stereo not drawn)", "remaining compound [%]": 2.77}
{"note": "Some of these lines once more (block 4):"}
{"SMILES": "COc1ccc(N(C)C(=O)c2cc(S(=O)(=O)N3CCc4ccccc43)cn2C)c(OC)c1", "remaining compound [%]": "< 1"}
{"SMILES": "CCc1nc(C)c2c(n1)N(CCc1c(C)noc1C)C(=O)CC2", "remaining compound [%]": 0.888}
{"SMILES": "CC(C)n1ncc2c1NC(=O)CC21C(=O)N(C)c2cc(Cl)cc(Cl)c21 (stereo not drawn)", "remaining compound [%]": "> 99.9"}
{"SMILES": "CCc1nn2c(c1-c1ccc(C)c(S(=O)(=O)N(C)c3ccc(C)c(C)c3)c1)NC(=O)CCC2=O", "remaining compound [%]": 49.3}
{"SMILES": "O=C(Cn1cnc(C2CC2)cc1=O)N1CCC(N2CC(=O)N(c3ccccc3)C2=O)CC1", "remaining compound [%]": 91.2}
